Assay results pooled from the literature.
A part holds a random share of what one study measured. “And” joins repeats or separate records; there may be more than shown.
Chain of UniProt P51957 (whole entry, looked up): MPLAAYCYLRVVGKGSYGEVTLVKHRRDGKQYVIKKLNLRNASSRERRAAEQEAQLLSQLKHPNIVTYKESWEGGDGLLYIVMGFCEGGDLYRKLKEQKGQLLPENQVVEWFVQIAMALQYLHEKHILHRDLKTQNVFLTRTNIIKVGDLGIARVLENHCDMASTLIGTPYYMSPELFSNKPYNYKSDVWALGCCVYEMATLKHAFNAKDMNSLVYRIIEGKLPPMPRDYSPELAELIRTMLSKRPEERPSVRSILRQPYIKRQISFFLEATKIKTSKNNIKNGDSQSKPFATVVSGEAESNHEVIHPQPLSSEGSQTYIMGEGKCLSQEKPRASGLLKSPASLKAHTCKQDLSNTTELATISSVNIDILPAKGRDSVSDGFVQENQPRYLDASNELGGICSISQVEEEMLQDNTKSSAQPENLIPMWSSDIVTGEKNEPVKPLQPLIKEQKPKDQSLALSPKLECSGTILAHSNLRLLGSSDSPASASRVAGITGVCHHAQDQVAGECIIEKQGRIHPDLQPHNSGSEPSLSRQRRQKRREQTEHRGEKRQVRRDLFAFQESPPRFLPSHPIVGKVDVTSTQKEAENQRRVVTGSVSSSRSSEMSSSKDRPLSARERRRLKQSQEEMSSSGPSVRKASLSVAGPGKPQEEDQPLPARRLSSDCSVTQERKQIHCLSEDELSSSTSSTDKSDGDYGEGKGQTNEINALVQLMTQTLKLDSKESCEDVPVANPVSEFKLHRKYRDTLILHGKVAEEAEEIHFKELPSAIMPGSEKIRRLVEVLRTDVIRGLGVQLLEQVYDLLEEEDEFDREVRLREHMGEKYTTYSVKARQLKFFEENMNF
Chain of UniProt Q9BUB5 (whole entry, looked up): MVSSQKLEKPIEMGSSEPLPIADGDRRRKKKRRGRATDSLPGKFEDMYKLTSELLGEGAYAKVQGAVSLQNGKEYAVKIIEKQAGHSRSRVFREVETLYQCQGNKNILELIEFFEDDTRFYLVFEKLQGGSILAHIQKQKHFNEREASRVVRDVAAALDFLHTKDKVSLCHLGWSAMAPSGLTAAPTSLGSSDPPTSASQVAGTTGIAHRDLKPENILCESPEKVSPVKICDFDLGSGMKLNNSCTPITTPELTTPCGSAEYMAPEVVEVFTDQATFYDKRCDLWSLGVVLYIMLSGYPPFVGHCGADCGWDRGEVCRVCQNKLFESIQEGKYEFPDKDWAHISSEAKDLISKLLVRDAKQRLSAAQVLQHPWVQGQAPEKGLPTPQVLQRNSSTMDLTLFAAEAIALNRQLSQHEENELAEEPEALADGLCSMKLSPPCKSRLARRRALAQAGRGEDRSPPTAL
Chain of UniProt O94921 (whole entry, looked up): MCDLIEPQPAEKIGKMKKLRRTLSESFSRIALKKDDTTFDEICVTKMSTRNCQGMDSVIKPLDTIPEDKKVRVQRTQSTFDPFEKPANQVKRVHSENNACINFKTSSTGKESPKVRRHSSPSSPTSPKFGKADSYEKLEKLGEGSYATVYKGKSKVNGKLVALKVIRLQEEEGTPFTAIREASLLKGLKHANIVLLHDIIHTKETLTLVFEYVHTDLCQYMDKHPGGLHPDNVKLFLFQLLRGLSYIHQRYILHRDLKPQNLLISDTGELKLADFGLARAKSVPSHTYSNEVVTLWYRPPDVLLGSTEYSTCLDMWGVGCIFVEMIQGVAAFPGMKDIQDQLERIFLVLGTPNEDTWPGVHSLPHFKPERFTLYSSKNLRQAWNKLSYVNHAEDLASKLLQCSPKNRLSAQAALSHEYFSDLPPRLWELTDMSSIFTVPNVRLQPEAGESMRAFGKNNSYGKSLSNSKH
Chain of UniProt Q8NEB9 (whole entry, looked up): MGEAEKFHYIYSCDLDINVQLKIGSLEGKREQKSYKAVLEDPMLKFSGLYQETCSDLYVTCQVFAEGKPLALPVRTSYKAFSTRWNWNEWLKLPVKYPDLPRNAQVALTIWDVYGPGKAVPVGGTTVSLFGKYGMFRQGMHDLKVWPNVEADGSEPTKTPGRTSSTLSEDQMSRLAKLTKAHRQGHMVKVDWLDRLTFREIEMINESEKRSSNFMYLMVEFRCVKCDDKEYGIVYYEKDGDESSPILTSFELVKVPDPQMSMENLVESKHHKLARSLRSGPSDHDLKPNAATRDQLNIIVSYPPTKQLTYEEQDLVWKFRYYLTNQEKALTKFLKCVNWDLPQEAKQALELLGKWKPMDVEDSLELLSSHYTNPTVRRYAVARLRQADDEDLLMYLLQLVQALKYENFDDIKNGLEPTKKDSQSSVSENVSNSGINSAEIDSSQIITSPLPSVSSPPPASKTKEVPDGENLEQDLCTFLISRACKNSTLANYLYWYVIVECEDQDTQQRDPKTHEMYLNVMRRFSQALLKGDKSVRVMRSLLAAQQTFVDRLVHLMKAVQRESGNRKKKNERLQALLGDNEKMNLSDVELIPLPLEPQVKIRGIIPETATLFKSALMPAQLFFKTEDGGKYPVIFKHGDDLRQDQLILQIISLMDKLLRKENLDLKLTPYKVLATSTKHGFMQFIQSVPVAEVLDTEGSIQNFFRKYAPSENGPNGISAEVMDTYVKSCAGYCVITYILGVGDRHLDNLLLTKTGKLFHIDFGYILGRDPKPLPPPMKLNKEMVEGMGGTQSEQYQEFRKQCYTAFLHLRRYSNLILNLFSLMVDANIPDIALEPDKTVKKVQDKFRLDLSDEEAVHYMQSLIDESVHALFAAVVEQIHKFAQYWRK
Chain of UniProt P51451 (whole entry, looked up): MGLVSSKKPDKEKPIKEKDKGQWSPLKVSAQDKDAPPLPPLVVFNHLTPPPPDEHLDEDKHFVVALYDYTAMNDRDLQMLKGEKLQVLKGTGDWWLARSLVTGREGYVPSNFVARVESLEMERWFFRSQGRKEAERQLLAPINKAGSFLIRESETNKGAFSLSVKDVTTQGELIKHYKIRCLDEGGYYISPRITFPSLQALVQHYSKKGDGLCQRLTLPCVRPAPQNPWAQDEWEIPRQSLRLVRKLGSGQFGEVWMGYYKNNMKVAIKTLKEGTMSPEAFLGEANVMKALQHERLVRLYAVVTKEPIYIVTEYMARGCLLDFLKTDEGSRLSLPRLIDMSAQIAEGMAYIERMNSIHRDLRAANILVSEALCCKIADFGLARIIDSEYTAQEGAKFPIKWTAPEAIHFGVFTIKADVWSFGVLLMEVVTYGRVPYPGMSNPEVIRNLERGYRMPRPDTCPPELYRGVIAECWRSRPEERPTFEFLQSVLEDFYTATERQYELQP
Chain of UniProt O43293 (whole entry, looked up): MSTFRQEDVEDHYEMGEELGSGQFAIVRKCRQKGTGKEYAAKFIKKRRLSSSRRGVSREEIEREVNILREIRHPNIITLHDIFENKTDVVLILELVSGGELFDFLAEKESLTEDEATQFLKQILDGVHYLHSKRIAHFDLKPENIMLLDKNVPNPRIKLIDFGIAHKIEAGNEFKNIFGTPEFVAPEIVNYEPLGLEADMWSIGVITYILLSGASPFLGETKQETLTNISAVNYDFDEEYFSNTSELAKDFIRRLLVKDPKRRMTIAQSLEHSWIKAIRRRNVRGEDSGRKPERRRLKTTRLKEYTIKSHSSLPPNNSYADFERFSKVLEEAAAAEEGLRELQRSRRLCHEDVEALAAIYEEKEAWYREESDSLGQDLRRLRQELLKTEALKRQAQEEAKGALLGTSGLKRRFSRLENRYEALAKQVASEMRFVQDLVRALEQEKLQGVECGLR

Set 1 — reference: DMSO; measurement: cell growth
Structure (SMILES): Cc1cc2c(C(N)=O)c(N)n(-c3c(C)ccc(O)c3C)c2nc1C
NCI-H1048; MTT; 511 pM, 5 d: 97.3% and 102%
NCI-H1048; MTT; 1.52 nM, 5 d: 102% and 101%
NCI-H1048; MTT; 10 µM, 5 d: 0.0741% and 0.0926%
NCI-H69; MTT; 511 pM, 5 d: 66% and 86.2%
NCI-H446; Vi-Cell counting; 1.11 µM, 5 days: 77.9% and 87.7%
NCI-H69; MTT; 13.7 nM, 5 d: 108% and 132%
NCI-H69; MTT; 10 µM, 5 d: 5.49% and 7.1%
NCI-H446; Vi-Cell counting; 371 nM, 5 days: 90.9% and 91.4%
NCI-H1048; MTT; 41.1 nM, 5 d: 91.7% and 85.4%
NCI-H69; MTT; 124 nM, 5 d: 100% and 93.8%
NCI-H446; Vi-Cell counting; 4.57 nM, 5 days: 96.9% and 107%
NCI-H1048; MTT; 3.33 µM, 5 d: 5.57% and 8.44%
NCI-H446; Vi-Cell counting; 41.1 nM, 5 days: 92% and 97%
NCI-H69; MTT; 371 nM, 5 d: 91% and 117%

Set 2 — effect on: enzyme activity; action: inhibitor; concentration: 10 µM; measurement: inhibition
Target: Calcium/calmodulin-dependent protein kinase type II subunit alpha (CAMK2A, Homo sapiens, UniProt Q9UQM7)
Chain of UniProt Q9UQM7 (whole entry, looked up): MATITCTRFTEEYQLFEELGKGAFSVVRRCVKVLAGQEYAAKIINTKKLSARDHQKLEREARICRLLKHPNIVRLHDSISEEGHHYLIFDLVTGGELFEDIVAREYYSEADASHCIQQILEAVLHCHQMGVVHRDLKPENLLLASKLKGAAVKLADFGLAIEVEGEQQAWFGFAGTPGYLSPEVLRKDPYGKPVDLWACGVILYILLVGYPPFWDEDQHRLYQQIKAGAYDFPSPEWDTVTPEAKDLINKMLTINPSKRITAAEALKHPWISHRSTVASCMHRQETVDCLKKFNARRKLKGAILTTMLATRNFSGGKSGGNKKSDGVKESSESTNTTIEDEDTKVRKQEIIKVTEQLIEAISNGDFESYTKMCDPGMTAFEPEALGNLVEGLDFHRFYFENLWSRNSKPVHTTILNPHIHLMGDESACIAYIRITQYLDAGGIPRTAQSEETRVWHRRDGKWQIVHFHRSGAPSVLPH
COc1cc(-c2cc(=O)c3c(O)cc(O[C@@H]4O[C@H](CO)[C@@H](O)[C@H](O)[C@H]4O[C@@H]4OC[C@](O)(CO)[C@H]4O)cc3o2)ccc1O: 19%
C[C@H]1CNCCCN1S(=O)(=O)c1cccc2cncc(F)c12: 3%
O=C(CCCN1CCN(c2ccccn2)CC1)c1ccc(F)cc1: -17%
OC[C@H]1O[C@@H](O[C@H]2[C@H](O)[C@@H](O)C(O)O[C@@H]2CO)[C@H](O)[C@@H](O)[C@H]1O (stereo partly drawn): -8%
C=C[C@]1(C)C[C@@H](OC(=O)CS[C@@H]2C[C@H]3CC[C@@H](C2)N3C)[C@]2(C)[C@H](C)CC[C@]3(CCC(=O)[C@H]32)[C@@H](C)[C@@H]1O: -6%
CSCCC(NC(C)=O)C(=O)O (racemic): -5%
O=C(O)[C@H](O)[C@@H](O)[C@H](O[C@@H]1O[C@H](CO)[C@H](O)[C@H](O)[C@H]1O)[C@H](O)CO: -15%
Clc1ccc(C(c2ccccc2Cl)C(Cl)Cl)cc1 (stereo not drawn): -2%
COc1cc2c(cc1O)CCN1Cc3c(ccc(OC)c3OC)CC21 (stereo not drawn): 45%
CC1COc2c(N3CCN(C)CC3)c(F)cc3c(=O)c(C(=O)O)cn1c23 (stereo not drawn): -14%
COc1cc(O)ccc1CCC(=O)c1ccc(O)cc1: -1%
O=c1[nH]c(=O)c2nc[nH]c2[nH]1: -9%
CN[C@H](CC(C)C)C(=O)N[C@H]1C(=O)N[C@@H](CC(N)=O)C(=O)N[C@H]2C(=O)N[C@H]3C(=O)N[C@H](C(=O)N[C@H](C(=O)O)c4cc(O)cc(O)c4-c4cc3ccc4O)[C@H](O[C@H]3C[C@](C)(N)[C@@H](O)[C@H](C)O3)c3ccc(c(Cl)c3)Oc3cc2cc(c3O[C@@H]2O[C@H](CO)[C@@H](O)[C@H](O)[C@H]2O[C@H]2C[C@](C)(NCc3ccc(-c4ccc(Cl)cc4)cc3)[C@@H](O)[C@H](C)O2)Oc2ccc(cc2Cl)[C@H]1O: -1%
N[C@@H](CCSSCC[C@H](N)C(=O)O)C(=O)O: 2%
CC(C)N1CCN(c2ccc(OC[C@H]3CO[C@](Cn4cncn4)(c4ccc(Cl)cc4Cl)O3)cc2)CC1 (racemic): 5%

Set 3 — effect on: cell-free assay; method: competition with immobilised ligand; concentration: 1 µM; measurement: remaining binding
Compound: O=C1CCc2cc(Nc3cc(OC4CCOCC4)c([N+](=O)[O-])cc3Cl)ccc2N1
CDK15 (Homo sapiens, UniProt Q96Q40): 73%
MKNK1 (Homo sapiens, UniProt Q9BUB5): 100%
FER (Homo sapiens, UniProt P16591): 100%
NEK4 (Homo sapiens, UniProt P51957): 100%
CSNK1E (Homo sapiens, UniProt P49674): 100%
FLT3 (Homo sapiens, UniProt P36888, K663Q): 100%
FLT3 (Homo sapiens, UniProt P36888): 90%
Cyclin-dependent kinase 4, with cyclin D3 (CDK4, Homo sapiens, UniProt P11802): 90%
EGFR (Homo sapiens, UniProt P00533, A750P/del747-749): 92%
DAPK3 (Homo sapiens, UniProt O43293): 91%
CDK14 (Homo sapiens, UniProt O94921): 100%
PIK3C3 (Homo sapiens, UniProt Q8NEB9): 100%
BLK (Homo sapiens, UniProt P51451): 94%
PRKX (Homo sapiens, UniProt P51817): 100%
VRK2 (Homo sapiens, UniProt Q86Y07): 100%
PDGFRB (Homo sapiens, UniProt P09619): 97%
CAMKK2 (Homo sapiens, UniProt Q96RR4): 100%
DDR2 (Homo sapiens, UniProt Q16832): 100%
Tyrosine-protein kinase JAK3, JH1 (JAK3, Homo sapiens, UniProt P52333): 96%
CAMK4 (Homo sapiens, UniProt Q16566): 100%
ROCK2 (Homo sapiens, UniProt O75116): 100%

Set 4 — effect on: enzyme activity; action: inhibitor; concentration: 0.5 µM; reference: control; measurement: remaining activity
Target: Tyrosine-protein kinase Fes/Fps (FES, Homo sapiens, UniProt P07332)
Chain of UniProt P07332 (whole entry, looked up): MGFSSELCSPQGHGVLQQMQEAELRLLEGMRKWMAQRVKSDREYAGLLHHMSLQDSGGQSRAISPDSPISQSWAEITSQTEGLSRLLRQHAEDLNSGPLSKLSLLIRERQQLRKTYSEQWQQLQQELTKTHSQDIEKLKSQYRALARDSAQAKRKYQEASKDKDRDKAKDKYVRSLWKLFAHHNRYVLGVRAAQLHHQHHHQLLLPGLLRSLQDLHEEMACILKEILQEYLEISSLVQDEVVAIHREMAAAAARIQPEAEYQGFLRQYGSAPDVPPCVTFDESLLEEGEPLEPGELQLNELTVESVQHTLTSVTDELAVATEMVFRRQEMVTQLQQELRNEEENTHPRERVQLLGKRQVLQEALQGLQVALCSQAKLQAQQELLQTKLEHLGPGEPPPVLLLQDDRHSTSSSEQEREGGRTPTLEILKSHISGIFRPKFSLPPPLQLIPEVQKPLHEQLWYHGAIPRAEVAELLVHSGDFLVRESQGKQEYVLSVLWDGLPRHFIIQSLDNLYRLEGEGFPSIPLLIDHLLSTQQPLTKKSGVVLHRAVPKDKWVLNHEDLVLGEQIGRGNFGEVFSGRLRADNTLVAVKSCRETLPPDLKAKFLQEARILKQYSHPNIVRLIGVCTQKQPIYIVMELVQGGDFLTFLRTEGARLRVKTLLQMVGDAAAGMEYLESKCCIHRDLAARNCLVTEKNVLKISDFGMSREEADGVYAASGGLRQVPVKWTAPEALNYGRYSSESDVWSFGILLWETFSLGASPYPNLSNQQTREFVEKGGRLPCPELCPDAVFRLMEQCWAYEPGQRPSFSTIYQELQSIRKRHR
Cc1cncc2cccc(S(=O)(=O)N3CCCN(C(=O)CN)C[C@@H]3C)c12: 102%
CC#CC(=O)Nc1cc2c(Nc3ccc(F)c(Cl)c3)ncnc2cn1: 99.4%
CC[n+]1c(/C=C/N(C)c2ccccc2)n(-c2ccccc2)c2ccc(-c3nc4ccccc4s3)cc21: 101%
O=S(=O)(NCCNC/C=C/c1ccc(Br)cc1)c1cccc2cnccc12: 115%
Nc1nccc(-c2c(-c3ccc(F)cc3)ncn2C2CCNCC2)n1: 103%
O=C1Cc2c([nH]c3ccc([N+](=O)[O-])cc23)-c2ccccc2N1: 46.3%
NC(=O)c1ccc(N(C(N)=O)c2c(F)cccc2F)nc1-c1ccc(F)cc1F: 99%
CCc1[nH]c(-c2ccc(OC)cc2)nc1-c1ccncc1: 100%
Nc1ncnc2c1cnn2-c1ccccc1: 99.7%
CC(C)(C)n1nc(Cc2cccc3ccccc23)c2c(N)ncnc21: 96.8%
CCCC(=O)Oc1ccc2[nH]c(C(=O)c3cc4ccccc4[nH]3)cc2c1: 97.8%
Oc1ccc(Nc2nc(-c3ccc(Cl)cc3)cs2)cc1: 103%
N#CC(=C(N)Sc1ccc(N)cc1)c1ccccc1C(F)(F)F: 98%
Cc1cc(Nc2nc(-c3ccccc3)nc3ccccc23)n[nH]1: 94.7%
CSc1nc(-c2ccnc(N[C@@H](C)c3ccccc3)c2)c(-c2ccc(F)cc2)[nH]1 (racemic): 93.8%
Fc1ccc(-c2nc3n(c2-c2ccncc2)CCS3)cc1: 104%
Cc1ccc(NC2=CC(=O)c3sc(C)nc3C2=O)cc1: 101%
CC(=O)c1ccc(N2CCOCC2)cc1O: 100%
COc1ccc(S(=O)(=O)N(CCO)c2ccccc2CN(C)CC=Cc2ccc(Cl)cc2)cc1: 96.3%

Excerpt of the above (set 3):
DAPK3 (Homo sapiens, UniProt O43293): 91%
DDR2 (Homo sapiens, UniProt Q16832): 100%
FER (Homo sapiens, UniProt P16591): 100%
Tyrosine-protein kinase JAK3, JH1 (JAK3, Homo sapiens, UniProt P52333): 96%
PIK3C3 (Homo sapiens, UniProt Q8NEB9): 100%
